Published values gathered from unrelated publications.
Every numbered part comes from another study and shows a few of its results, in no order.
Sequence of UniProt Q6ZN16 (whole entry, looked up): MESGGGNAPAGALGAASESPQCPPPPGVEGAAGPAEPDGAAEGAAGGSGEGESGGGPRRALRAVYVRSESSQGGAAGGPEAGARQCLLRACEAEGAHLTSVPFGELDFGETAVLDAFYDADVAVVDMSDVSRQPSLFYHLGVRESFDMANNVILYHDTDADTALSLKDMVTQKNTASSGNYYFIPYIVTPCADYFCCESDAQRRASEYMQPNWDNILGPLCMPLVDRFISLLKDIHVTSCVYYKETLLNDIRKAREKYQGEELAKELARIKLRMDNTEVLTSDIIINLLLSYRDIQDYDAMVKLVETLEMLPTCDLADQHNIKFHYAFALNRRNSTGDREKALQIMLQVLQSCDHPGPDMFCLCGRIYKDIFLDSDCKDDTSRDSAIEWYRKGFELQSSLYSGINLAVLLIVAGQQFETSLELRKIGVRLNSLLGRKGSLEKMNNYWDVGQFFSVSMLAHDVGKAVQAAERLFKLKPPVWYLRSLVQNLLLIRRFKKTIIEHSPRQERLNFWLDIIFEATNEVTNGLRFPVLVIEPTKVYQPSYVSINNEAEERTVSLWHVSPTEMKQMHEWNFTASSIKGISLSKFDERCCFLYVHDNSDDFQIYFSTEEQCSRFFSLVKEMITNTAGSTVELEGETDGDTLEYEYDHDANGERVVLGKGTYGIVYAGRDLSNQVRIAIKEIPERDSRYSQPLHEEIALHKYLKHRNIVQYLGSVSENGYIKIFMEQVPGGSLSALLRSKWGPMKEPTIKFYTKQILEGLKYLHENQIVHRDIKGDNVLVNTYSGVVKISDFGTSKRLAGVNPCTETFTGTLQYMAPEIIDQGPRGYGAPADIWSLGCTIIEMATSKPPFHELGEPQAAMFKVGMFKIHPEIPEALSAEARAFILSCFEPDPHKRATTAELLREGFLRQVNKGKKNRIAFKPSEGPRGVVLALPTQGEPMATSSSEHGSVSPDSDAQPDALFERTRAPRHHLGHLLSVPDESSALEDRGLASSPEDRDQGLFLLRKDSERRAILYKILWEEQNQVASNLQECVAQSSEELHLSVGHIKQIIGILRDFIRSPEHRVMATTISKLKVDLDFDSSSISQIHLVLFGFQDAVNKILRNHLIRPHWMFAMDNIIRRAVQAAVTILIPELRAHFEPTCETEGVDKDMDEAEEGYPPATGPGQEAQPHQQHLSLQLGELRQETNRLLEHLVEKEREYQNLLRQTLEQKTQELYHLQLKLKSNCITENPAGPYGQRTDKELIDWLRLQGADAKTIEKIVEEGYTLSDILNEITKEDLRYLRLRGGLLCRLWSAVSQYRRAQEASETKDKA
Sequence of UniProt Q9H2K8 (whole entry, looked up): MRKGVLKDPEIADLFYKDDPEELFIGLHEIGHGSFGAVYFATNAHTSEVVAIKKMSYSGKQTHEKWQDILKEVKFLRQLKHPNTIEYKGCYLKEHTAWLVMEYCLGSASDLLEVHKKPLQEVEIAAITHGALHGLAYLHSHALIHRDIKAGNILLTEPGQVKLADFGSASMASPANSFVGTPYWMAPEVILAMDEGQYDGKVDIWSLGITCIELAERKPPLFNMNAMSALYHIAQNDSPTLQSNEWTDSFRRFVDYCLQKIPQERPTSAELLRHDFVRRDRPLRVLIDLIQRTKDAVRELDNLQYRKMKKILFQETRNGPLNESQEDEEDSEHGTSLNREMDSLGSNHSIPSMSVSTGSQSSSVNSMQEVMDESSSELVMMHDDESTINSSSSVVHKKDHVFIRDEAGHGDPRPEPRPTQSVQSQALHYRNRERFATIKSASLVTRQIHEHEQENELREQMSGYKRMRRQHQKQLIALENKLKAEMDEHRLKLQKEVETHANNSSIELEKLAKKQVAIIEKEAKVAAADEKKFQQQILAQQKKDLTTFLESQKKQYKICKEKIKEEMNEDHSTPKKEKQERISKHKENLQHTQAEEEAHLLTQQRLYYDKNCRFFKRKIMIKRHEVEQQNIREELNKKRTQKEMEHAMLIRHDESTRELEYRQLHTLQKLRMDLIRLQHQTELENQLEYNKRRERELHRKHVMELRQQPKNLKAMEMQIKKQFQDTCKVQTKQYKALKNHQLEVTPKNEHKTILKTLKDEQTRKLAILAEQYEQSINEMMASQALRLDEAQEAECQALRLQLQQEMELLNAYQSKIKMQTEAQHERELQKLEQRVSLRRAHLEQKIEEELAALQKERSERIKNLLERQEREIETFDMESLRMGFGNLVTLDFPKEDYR
Sequence of UniProt P27361 (whole entry, looked up): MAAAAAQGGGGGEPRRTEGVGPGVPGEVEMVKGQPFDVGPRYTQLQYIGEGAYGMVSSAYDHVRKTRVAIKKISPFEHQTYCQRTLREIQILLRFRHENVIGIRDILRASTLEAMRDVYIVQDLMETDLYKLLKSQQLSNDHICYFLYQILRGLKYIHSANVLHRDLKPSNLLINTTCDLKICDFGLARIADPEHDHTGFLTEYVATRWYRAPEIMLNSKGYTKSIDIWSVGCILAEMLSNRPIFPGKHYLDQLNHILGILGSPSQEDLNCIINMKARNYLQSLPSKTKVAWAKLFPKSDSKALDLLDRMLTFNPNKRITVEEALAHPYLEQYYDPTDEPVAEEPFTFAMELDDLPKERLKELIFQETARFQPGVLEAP
Sequence of UniProt O75460 (whole entry, looked up): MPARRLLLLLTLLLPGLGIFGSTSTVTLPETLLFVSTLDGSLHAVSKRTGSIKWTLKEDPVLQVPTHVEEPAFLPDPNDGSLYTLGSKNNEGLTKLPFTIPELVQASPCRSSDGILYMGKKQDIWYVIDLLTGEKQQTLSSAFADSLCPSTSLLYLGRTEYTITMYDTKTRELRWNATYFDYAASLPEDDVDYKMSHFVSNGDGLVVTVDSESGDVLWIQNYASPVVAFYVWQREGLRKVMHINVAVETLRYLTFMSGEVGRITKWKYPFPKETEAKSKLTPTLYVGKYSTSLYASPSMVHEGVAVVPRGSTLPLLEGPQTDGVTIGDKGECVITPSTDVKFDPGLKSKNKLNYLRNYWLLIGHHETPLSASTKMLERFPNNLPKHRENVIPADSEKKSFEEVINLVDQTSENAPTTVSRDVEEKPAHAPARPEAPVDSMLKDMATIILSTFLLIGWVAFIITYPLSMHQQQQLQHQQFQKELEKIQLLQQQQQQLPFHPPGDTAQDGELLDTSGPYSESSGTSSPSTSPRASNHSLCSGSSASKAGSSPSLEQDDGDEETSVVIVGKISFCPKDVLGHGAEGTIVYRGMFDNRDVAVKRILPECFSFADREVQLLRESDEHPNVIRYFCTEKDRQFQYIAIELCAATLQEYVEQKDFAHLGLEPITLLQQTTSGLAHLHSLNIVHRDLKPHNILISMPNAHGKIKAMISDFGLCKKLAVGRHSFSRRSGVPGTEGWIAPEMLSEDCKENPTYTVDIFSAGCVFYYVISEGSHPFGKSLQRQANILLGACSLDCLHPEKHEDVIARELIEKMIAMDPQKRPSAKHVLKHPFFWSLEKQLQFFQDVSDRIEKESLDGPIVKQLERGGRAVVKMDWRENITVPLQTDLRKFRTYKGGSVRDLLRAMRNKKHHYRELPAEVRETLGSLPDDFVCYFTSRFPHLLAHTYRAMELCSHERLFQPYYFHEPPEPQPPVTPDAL
Sequence of UniProt P36896 (whole entry, looked up): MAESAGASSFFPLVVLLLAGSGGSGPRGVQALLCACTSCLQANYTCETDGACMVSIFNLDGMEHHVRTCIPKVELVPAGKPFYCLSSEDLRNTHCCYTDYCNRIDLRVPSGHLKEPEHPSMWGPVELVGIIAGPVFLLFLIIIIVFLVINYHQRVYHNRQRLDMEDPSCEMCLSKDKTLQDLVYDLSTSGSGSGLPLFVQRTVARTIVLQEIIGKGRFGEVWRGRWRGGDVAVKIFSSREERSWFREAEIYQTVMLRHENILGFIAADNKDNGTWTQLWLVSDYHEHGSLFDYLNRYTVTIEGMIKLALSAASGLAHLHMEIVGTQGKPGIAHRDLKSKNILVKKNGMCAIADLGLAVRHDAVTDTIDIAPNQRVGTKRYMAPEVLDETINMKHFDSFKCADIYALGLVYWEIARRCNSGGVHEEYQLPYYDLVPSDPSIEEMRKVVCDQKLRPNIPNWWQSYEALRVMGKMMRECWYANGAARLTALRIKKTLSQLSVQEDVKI
Sequence of UniProt P22607 (whole entry, looked up): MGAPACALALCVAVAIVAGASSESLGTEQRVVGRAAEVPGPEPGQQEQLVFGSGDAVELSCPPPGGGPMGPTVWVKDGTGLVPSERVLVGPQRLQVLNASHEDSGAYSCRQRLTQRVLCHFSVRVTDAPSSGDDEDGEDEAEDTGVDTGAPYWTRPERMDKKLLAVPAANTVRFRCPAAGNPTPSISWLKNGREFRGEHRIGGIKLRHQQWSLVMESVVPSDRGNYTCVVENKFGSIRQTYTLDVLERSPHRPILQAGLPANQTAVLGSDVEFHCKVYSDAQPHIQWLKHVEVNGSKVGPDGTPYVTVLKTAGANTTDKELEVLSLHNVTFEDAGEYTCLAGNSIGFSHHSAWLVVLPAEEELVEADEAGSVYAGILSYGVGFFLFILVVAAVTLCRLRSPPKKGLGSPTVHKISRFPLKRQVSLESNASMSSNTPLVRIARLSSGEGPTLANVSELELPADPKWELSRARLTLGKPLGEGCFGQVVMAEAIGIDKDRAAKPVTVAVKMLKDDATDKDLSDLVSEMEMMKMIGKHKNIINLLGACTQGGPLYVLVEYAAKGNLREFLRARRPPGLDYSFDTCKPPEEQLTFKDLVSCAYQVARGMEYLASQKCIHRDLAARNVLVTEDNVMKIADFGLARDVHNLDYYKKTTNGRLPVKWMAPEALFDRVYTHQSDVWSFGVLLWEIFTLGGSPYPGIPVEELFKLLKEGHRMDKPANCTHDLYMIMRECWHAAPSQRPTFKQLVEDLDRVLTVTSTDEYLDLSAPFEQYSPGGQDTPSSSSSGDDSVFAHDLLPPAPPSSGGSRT

Sample 1 — method: DNA-protein interaction ELISA; form: double-stranded DNA, one strand shown; medium: in vitro, bacterial lysate; tested at: not given; setting: whole dsDNA probe, crude lysate protein; baseline: highest signal in screen; reading: higher = stronger binding
Target: Probable WRKY transcription factor 11, DNA-binding domain (WRKY11, Arabidopsis thaliana, UniProt Q9SV15, residues 228-325)
Residues (chain): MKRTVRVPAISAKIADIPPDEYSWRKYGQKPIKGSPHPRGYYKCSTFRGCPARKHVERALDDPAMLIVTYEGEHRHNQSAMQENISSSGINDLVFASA
| Oligonucleotide | relative absorbance |
| --- | --- |
| AAAAAATATGGCACTCGCCGCACATCAAAA | 17.9 % of maximum |
| AAAAAATGTCGGCTGTTAGGATATCGAAAA | 17 % of maximum |
| AAAAAACATGTCGCACCTGTACTAACAAAA | 16.4 % of maximum |
| AAAAAATACTGGCTGTCTCGTTCACAAAAA | 16.1 % of maximum |
| AAAAAAGTATAACGTGTTGTTGACCGAAAA | 100 % of maximum |
| AAAAAATTGTGCCTCTGCCCTCGCCTAAAA | 15.3 % of maximum |
| AAAAAAGTGTTTGTGCTTCTCTCTGTAAAA | 15.3 % of maximum |
| AAAAAAGTGCACGACCCATTTATATAAAAA | 12.4 % of maximum |

Sample 2 — observed: cell-free assay; method: competition with immobilised ligand; tested at: 1 µM
Compound: CO[C@H]1CC[C@H](CNc2ccc(S(=O)(=O)NC(=O)c3ccc(N4CCN(CC5=C(c6ccc(Cl)cc6)CC(C)(C)CC5)CC4)cc3Oc3cnc4[nH]ccc4c3)cc2[N+](=O)[O-])CC1
| target | remaining binding |
| --- | --- |
| SBK1 (Homo sapiens, UniProt Q52WX2) | 100% |
| ERN1 (Homo sapiens, UniProt O75460) | 89% |
| CDK17 (Homo sapiens, UniProt Q00537) | 99% |
| MAP3K3 (Homo sapiens, UniProt Q99759) | 83% |
| TAOK3 (Homo sapiens, UniProt Q9H2K8) | 87% |
| MAP3K15 (Homo sapiens, UniProt Q6ZN16) | 100% |
| PRKD3 (Homo sapiens, UniProt O94806) | 100% |
| BMPR1B (Homo sapiens, UniProt O00238) | 92% |
| EGFR (Homo sapiens, UniProt P00533, del746-750) | 100% |
| BMP2K (Homo sapiens, UniProt Q9NSY1) | 94% |

Sample 3 — method: protein binding microarray; form: double-stranded DNA, one strand shown; medium: in vitro; tested at: not given; baseline: not given; reading: higher = stronger binding
Target: Histone acetyltransferase KAT6A, winged helix 2, GST fusion (KAT6A, Homo sapiens, UniProt Q92794, residues 85-181)
Setting: 8-mer, flanks averaged, mean of 2 arrays, mostly near background
Construct (chain): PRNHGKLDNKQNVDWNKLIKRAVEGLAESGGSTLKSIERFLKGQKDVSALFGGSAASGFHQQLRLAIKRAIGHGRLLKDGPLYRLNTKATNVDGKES
| Oligonucleotide | E-score |
| --- | --- |
| GAATGAAA | 0.0237 |
| AGCTCGTC | -0.0318 |
| CGAGGATC | 0.0587 |
| AGGGGCGC | 0.00829 |
| AGCGCTAT | 0.0324 |
| CCATTGCC | 0.0194 |
| ACGTCGGG | -0.00464 |
| AAGAGAGA | -0.00571 |

Sample 4 — observed: enzyme activity; mode: inhibitor; tested at: 0.5 µM; baseline: control
SMILES: Oc1ccc(-c2nc(-c3ccncc3)c(-c3ccc(F)cc3)[nH]2)cc1
| target | remaining activity |
| --- | --- |
| TEK (Homo sapiens, UniProt Q02763) | 99.6% |
| MAPK3 (Homo sapiens, UniProt P27361) | 101% |
| TAOK2 (Homo sapiens, UniProt Q9UL54) | 94.7% |
| ACVR1B (Homo sapiens, UniProt P36896) | 136% |
| EPHA3 (Homo sapiens, UniProt P29320) | 99% |
| FGFR3 (Homo sapiens, UniProt P22607) | 99.2% |
| WEE1 (Homo sapiens, UniProt P30291) | 94.9% |

Repeated from above (sample 3):
| Oligonucleotide | E-score |
| --- | --- |
| AAGAGAGA | -0.00571 |
| CGAGGATC | 0.0587 |
| AGGGGCGC | 0.00829 |
| GAATGAAA | 0.0237 |
